# Published values of several laboratories.
# Numbered parts are unrelated; each lists some results of a single study.

# Set 1
# Target: Ras GTPase-activating protein-binding protein 1, full length (G3BP1, Homo sapiens, UniProt Q13283)
# Chain of UniProt Q13283 (whole entry, looked up): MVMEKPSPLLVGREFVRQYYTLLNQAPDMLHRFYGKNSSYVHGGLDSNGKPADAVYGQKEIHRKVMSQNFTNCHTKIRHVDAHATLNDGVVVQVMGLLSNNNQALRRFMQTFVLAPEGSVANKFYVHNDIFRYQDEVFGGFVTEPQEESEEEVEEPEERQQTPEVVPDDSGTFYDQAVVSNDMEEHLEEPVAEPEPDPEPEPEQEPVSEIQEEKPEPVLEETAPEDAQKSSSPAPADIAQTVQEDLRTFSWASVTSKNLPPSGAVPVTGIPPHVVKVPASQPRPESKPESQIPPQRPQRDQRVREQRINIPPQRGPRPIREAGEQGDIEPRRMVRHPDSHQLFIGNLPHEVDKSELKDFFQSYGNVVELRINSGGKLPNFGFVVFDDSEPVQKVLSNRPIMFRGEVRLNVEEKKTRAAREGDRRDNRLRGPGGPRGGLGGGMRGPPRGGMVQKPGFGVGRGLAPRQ
# Technique: RNA Bind-n-Seq
# Molecule type: RNA
# Matrix: in vitro
# Tested at: 200 nM
# Setting: whole 134-nt RNA, ends assumed
# With: 150 mM LiCl
# Relative to: input library
# Reading: higher = stronger binding
# All molecules: 7-deaza-guanosine replaces G
Oligonucleotide,log2 enrichment
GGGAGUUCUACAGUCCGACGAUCUGGCUAGUCAGCAGCGGAUGUCCCCUCCAGGUUAAGAAAGCCGAACCAGAGCCGAUGCGAGAGGAGGAGAAAAUGAUUCCUCCUACGAAAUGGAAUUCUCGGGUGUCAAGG,0.696
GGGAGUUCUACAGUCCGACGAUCGUCCUGUGCUACACAUCGUAUGUACCGAAUCGGGUUUUUGGGUUUUUGGGUUUUUGGGAAAGUAUUAUGUUACGCCGUUCGGAUCUGCACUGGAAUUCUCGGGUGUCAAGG,-0.226
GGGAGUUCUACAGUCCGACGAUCGUCCUGUGCUACACAUCGUAUGUACCGAAUCGGGGUUUUUUUGGGGAGGGGUUUGGGGAAAGUAUUAUGUUACGCCGUUCGGAUCUGCACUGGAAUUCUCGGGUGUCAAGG,-0.0371
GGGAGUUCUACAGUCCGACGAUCUGGGAGGUGGAUUUUGUUUAUUUUUUUAGCUUAUUUCCAGGGGUGGGAAUUUUUUUUUAAUAUGUGUCAUGAAUAAAGUUGUUUUUGAAAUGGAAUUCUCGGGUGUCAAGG,0.127
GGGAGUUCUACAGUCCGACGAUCUCCUGUGCUACACAUCGUAUGUACCGAAUCGGGAAAAAAAGGGUUUUUGGGUUUUUGGGAAAGUAUUAUGUUACGCCGUUCGGAUCUGCAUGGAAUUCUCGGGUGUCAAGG,-1.91
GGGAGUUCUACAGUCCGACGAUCUAACUUUAGAGGAGGAUCUGAUGGAUAUGGCAGUGGACGUGGAUUUGGGGAUGGCUAUAAUGGGUAUGGAGGAGGACCUGGAGGUGGCAGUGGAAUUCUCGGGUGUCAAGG,-0.0581
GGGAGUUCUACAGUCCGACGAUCUCAAGUCCUGUGCUACACAUCGUAUGUACCGAAUCGGGCCGGCCGGGGCCGGGGAAAGUAUUAUGUUACGCCGUUCGGAUCUGCACUUCCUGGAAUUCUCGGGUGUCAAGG,0.0303
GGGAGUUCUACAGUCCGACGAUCCACAGACAACACGCACCCACACAGACACAGAGGGAAGGGGUUGGGAUGGGGACAGGGUGCACAGCAGGGCGGGGUAGGACCCCAGCCCUUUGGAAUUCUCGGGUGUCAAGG,-0.309

# Set 2
# Target: RING finger protein unkempt homolog, zinc fingers 1-6, GST-SBP tag (UNK, Homo sapiens, UniProt Q9C0B0, residues 30-357)
# Technique: RNA Bind-n-Seq
# Molecule type: RNA
# Matrix: in vitro
# Tested at: not given
# Setting: RNA with constant flanks, human-mouse chimeric sites, ends assumed
# Relative to: input RNA pool
# Reading: higher = stronger binding
# Residues (chain): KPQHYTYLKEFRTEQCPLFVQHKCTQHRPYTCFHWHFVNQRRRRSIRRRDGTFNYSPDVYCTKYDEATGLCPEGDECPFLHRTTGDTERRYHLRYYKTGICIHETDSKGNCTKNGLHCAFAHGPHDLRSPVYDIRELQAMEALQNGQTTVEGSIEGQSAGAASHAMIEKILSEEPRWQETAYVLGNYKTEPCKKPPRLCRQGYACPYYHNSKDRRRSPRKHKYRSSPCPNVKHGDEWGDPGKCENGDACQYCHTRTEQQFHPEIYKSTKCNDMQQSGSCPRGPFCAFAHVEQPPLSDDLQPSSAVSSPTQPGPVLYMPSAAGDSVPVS
Oligonucleotide,bound/input enrichment [ratio]
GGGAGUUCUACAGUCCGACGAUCUACUACUAUGAUGGUGAUAUUGGCAAUUAUUAUUAUGGCCAGGGUCAUCCCAUGAAGCCUCAUAGAAUCCGGAUGACUCAUAACUUGCUGUUAAAUUAUGGUUUAUACAGAAAAAUGGAACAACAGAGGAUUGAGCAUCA,0.126
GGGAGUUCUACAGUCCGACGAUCCUUCGGAAAAAAAAAUUACCUUUUCUGACAGUGCUUUAUGGAGUAAAGAUCCACGUUCAAGCUCAAAGAGCAAAGGCUUUGCACGGAGCUCAAACAUCUGAUGAAGAAAGAUUUCUGAGACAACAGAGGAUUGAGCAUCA,0.0884
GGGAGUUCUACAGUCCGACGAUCGUAUACGGUUAUCGAGGAAAGGACUGUAGAGCGAAUGUUUACCUUCUUCCCACAGGGGAGAUAGUUUAUUUCAUUGCCUCAGUGGUAGUCCUGUUUAAUUAUGAGGAGAGGACUCAGCGACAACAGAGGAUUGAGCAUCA,0.328
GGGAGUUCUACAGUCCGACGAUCACCUCCCCCUCCCGCCUCACCCCACCCCCGCUUUUUGAAAGUGUGUUGGCGUUUCUUUUCCUUCCCCAUACAAAGUGGUUUUUACCACCCCCGCAAGGGUCUAUCGAAGGGCUUGACGGACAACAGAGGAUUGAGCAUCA,0.654
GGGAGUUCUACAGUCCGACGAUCAGAAAGCAAAACUUGGAAAGAUUUAAGAAAGGAGACGUAAGAUUCUUGAUUUGCACAGAUGUAGCUGCUAGAGGGAUUGAUAUCCACGGCGUUCCUUAUGUGAUCAACGUCACCCUGCCUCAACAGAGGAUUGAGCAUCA,0.23
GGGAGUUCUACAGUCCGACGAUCCAGUCCCCGUGUCCCAGUGCAGGACGAUGUGAACAAAAACUCAAAGCGGCCCUUUCUCUGUAGUUGAUGAUUCUCGAAAUGUGCUAUUAUUGUUUGUCUUUUUUUUUUUUUUUUUAAAGACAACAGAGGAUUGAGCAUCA,0.931
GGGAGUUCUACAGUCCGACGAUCAAAAUAGACUAUGGCGAGUACAUGGAUAAAAACAAUGUGAGGCGGCAAGCAACAACAAUCAUAGCUGAUAACAUUAUAUUUCUGAGUGACCAGACAAAAGAAAAGGCGUAGAAAGGAUGACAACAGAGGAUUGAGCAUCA,3.05
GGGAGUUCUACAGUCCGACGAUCUCAUUUUUCUCUUUUCUUUCUUUCCUUUAGGAAAAGCCUAAAGAUUAGGUUGUAAGAAAAACAGAAGCCAUGUUUCGAAGACCUGUAUUACAGGUAUUUCGUCAGUUUGUAAGACAUGAGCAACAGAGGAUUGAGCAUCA,0.186

# Set 3
# Target: Phosphate system positive regulatory protein PHO4, full length, GST-tagged (PHO4, Saccharomyces cerevisiae, UniProt P07270, residues 1-312)
# Technique: competition protein-binding microarray
# Molecule type: double-stranded DNA, one strand shown
# Matrix: in vitro
# Tested at: 2 µM
# Setting: whole 60-bp probe, lowest competitor level
# With: Cbf1 competitor, 0.05 µM
# Reading: higher = stronger binding
# Construct (chain): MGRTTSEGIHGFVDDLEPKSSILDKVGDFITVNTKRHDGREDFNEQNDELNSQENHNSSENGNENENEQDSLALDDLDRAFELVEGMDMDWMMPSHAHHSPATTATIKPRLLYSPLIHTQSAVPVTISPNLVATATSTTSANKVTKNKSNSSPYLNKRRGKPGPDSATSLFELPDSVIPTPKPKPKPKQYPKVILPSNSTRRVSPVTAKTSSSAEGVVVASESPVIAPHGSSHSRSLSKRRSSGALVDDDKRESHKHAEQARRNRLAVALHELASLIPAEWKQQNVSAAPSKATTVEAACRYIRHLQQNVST
Oligonucleotide,fluorescence intensity [a.u.]
CATACCCAACCTTTTCACGTGGCTTAAGATATTTGTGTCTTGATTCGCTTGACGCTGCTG,15100
TACAGTCGTTGGGCCACCGTGACTCGTATCTGCGTCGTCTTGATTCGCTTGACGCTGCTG,4360
GTCTTGTCTCATTTTCACGTGGTGTTCCCCACTTCAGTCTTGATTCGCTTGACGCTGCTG,13600
CATACCCAACCTTGGAGAGTGGGTGAAGATATTTGTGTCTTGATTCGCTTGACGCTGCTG,4020
TTTCTTCGTCTTCGTCCCGTGAGTCCGGACTCAGAAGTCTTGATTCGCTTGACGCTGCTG,4040
ATTGTCATCATCATCAGCGTGAGAAAGTCGAAACAAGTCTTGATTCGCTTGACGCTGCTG,5120
GGCCTCAAGGCATTACACGTTACGATTTTCCAACTGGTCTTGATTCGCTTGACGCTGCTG,5640
TGCGCAACAACTTTTCACGTGTCATTATGTCTAGAAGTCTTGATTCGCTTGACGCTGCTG,14000
CTAACGAAGGTTTGATTCGTGGGTGACAAGCCAAGTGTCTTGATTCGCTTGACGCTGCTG,6170
CCGGTCCTTTGCTGGCACGTGAATTGGATAGTACATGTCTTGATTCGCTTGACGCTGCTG,15600
GTAAGTGAGATAATCCACGTGCTTTAAAGAAGTTGTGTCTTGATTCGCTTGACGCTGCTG,19200
TTTGATCTGGTCTCAAACGTGTATCTGTGGGGGGTAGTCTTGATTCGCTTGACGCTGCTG,7730
AAATTACTAAGTTGTTTAGTGGGTGACGCCGTATGAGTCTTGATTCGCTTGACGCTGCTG,3330
ATCTGGCATCTTCACCACGTTATTTCTGCTGGTGAAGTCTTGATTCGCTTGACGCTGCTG,9850
TAACGACTGGCACCACCCGTGATGGAGAAGAACACAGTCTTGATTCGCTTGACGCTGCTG,6500
TCGCGAACCCCGTCAACCGTGATGGACGAGATATGAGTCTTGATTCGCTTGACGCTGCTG,3880
CTTTCCCGATCTTTTCACGTGGATTTAGCACATTTGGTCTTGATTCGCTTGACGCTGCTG,16000
GGTCCATTCGGCTTGCTGGTGGTACTGAGACAGATAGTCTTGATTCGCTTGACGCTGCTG,3830

# Set 4
# Target: RNA binding protein fox-1 homolog 2, RRM domain, GST-SBP tag (RBFOX2, Homo sapiens, UniProt O43251-10, residues 100-194)
# Technique: RNA Bind-n-Seq
# Molecule type: RNA
# Matrix: in vitro
# Tested at: 365 nM
# Setting: natural RNA segment, single round, ends assumed
# Relative to: no-protein control
# Reading: higher = stronger binding
# Target sequence (chain): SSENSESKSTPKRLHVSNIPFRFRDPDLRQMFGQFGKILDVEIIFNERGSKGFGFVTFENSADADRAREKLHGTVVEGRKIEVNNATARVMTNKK
Oligonucleotide,RBNS enrichment (R)
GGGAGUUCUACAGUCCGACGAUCACAUCACUACUUCUUAUGUAACUUCUUCCAGCCAGUGCUUUUAUUGUUCGUUUUAGUUUACUGGGGACACACAGGAGUCUUUCUGUAAUGACUUAUGUGGUAAAAUGUUUUGGAAUUCUCGGGUGCCAA,0.364
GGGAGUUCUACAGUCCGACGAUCUACUUUGUGCUGUGCCAGUGGCUCUGCCCAGGCUCCGCCAUCCCUUUACUGGAGUUCAUUGGUCAGUGCACAGUGCAGCCACAGGACUGACCGUCGUAGGCUUCCAUUUUUGGAAUUCUCGGGUGCCAA,0.267
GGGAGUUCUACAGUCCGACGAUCUGUGAGCUAAGGCUGAAGAGACCUUGCCUGUGGGAGCUGGGGUGGUACCUGCCCCAACAGCCCCCCAUCAUCUGAUUUUGGGUGUGACCCCUCGAGUGUGCAUGCCACCCUGGAAUUCUCGGGUGCCAA,2.21
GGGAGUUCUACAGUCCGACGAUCUUCUCAGAGUCUCAACACAGGAACGGAGUCUUCGGCUAUCAUGGACUAGGCUGAGGCUAGUGCUGGUGUGGACUCGUUGCCCACUGUCUUCCUGUUUAUGAUUAACUCUGUGGAAUUCUCGGGUGCCAA,0.552
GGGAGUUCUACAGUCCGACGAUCAAAAUGUCCAUCCUGGUCACAGCACACAAGAUGGCUAUUGGUCUGCUUUUACCCUACCCUGUACUAUACAUGAAAAUUCCAGUUAUUAACACACUCAAACUGGUGGAGCUUGGAAUUCUCGGGUGCCAA,0.538
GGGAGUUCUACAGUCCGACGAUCGGCUGGGGCCCCAUCUUGAUCUUUGAGCCCAUUCUUCUGGGUGUGCUUUUUGGGACCAUCACUGAGAGUCAGGAGUUUUACUGCCUGUAGCAAUGGCCAGAGCCUCUGGCUGGAAUUCUCGGGUGCCAA,0.256
